Measurements from different studies.
Protocols differ between the studies behind these lines. ± gives the spread as reported. Values after ≈ are worked out from the molar mass of the structure shown.

With `CCCCCCCCCCCCCCCC(=O)N[C@@H](CCCCN)C(=O)N[C@@H](CCCCN)C(=O)N[C@@H](CO)C(=O)N[C@@H](CCCNC(=N)N)C(=O)N[C@@H](C)C(=O)N[C@@H](CC(C)C)C(=O)N[C@@H](Cc1ccccc1)C(N)=O` the prothrombin time was 11.7 ± 0.3 s (cynomolgus monkey, female; 30 mg/kg, day 1).
For `COc1cc(NC(C)=O)c2c(c1O)-c1c(OC)c(OC)cc3c1C(C2)N(C)CC3` (centres unmarked), the remaining compound was 115 ± 2.8% (rat brain homogenate; 0.5 µg/mL, 4 h, room temperature, short-term storage).
The AUC(0-inf) ratio of `CC(C)(Sc1cc[n+]([O-])cc1-c1ccc(C#N)c2ccccc12)C(=O)OC1OC(C(=O)O)C(O)C(O)C1O` (centres unmarked) is reported as 136% (plasma; oral, 15 mg, mild renal impairment; reference: impaired over normal renal function).
For `O=C(CCc1ccc(CNC(C(=O)OC2CCCC2)C2CCCCC2)cn1)NO` (centres unmarked), the Vz/F was 176 L (human; oral, 60 mg, single dose, geometric mean).
For `NC(=O)/C=C/c1cccc(S(=O)(=O)Nc2ccccc2)c1`, “Cmax metabolic ratio” read 0.0522 (human, normal liver function, plasma; intravenous, 400 mg/m^2 belinostat, cycle 1 day -7, geometric mean; reference: metabolite over belinostat).
With `CC[C@H](C)[C@H](NC(=O)[C@H](N)Cc1ccc(O)cc1)C(=O)N[C@H]1CSSC[C@@H](C(=O)N(C)[C@H](C(N)=O)[C@@H](C)CC)NC(=O)[C@H](CCCNC(=N)N)NC(=O)[C@H](Cc2c[nH]cn2)NC(=O)[C@H](C)NC(=O)CN(C)C(=O)[C@H](Cc2c[nH]c3ccccc23)NC(=O)[C@H](CC(=O)O)NC(=O)[C@H](CCC(N)=O)NC(=O)[C@H](Cc2cn(C)c3ccccc23)NC(=O)[C@H](C(C)C)NC1=O` the recovery was 102 ± 4% (UPLC-ESI-MS; cynomolgus monkey plasma; 3.58 µg/mL, 48 h, 25 °C, bench-top after SPE).
For `CC(=O)N[C@H](CCNC(=O)c1cc(NC(=O)c2cc(NC(=O)c3cc(NC(=O)c4nccn4C)cn3C)cn2C)cn1C)C(=O)Nc1cn(C)c(C(=O)Nc2cc(C(=O)Nc3cc(C(=O)Nc4cc(C(=O)NCCCN(C)CCCN[14C](=O)c5cccc([14C](=O)O)c5)n(C)c4)n(C)c3)n(C)c2)n1`, the tissue concentration was under 0.1 mg/kg (BALB/c male mice, prostate; intraperitoneal, 15 nmol per animal, 24 h).
`COc1cc(F)c(C(C)C)cc1C1=C(CN2C(=O)O[C@H](c3cc(C(F)(F)F)cc(C(F)(F)F)c3)[C@@H]2C)CC(C)(C)CC1` — result for “Vd/F per body weight”: 82.6 L/kg (non-compartmental analysis; healthy male subjects, plasma; oral, 200 mg single dose).
`Cc1ccc(OCC(=O)O)cc1` gave a t1/2 of 3.8 h (Sprague-Dawley rat Crl:CD(SD), male, plasma; oral, 30 mg/kg/day of parent drug, day 90, 90-day repeated dosing).
Under “amount recovered in urine”, `CN1CCC[C@]1(C)/C=C/S(=O)(=O)NC(=O)Nc1c2c(cc3c1CCC3)CCC2` is recorded as 34.6 mg (human, urine; oral, 50 mg single dose).
For `CC1=C(/C=C/C(=O)N2CCN(C(N)=O)CC2)C(C)(C)CCC1`, the Cmax was 23.7 nmol/g (male mice, retina; oral, 40 mg/kg).
With `CCCn1c2ccc([N+](=O)[O-])cc2c(=O)n1Cc1ccccc1` the CC50 was 4.7 ± 1.7 µM (resazurin; peritoneal macrophages, BALB/c mice; 48 h, 10% FBS).
The adverse events of `[2H]C([2H])([2H])NC(=O)c1ccc(N2C(=S)N(c3ccc(C#N)c(C(F)(F)F)c3)C(=O)C2(C)C)cc1F` is reported as 1 occurrences (healthy men; oral, 160 mg, 50 days, fasting, soft capsules).
`CCCN(c1ccc(C(=O)NCCC(=O)O)cc1)S(=O)(=O)c1cc(C)c(-c2ccc(C(C)(C)C)cc2)c(C)c1` — result for “daily food intake”: “no effect” (mouse, HFD-induced obese; oral, 50 mg/kg once daily, 6 weeks).
With `OC1(C(F)(F)F)CCN(c2nc(Nc3ccnc(C(F)(F)F)c3)nc(-c3cccc(C(F)(F)F)n3)n2)C1` (centres unmarked) the oral bioavailability was 163% (monkey, blood; oral, 10 mg/kg).
For `COC(=O)C(c1ccccc1Cl)N1CCC(SCC(=O)c2cccc(OC)c2)C(=CC(=O)O)C1` (mixture of isomers), “deviation from nominal” read -9% (HPLC-MS/MS; feline citrate plasma; 100 ng/mL, 24 h, -20 °C, storage stability).
Under “fluorescence quantum yield”, `COc1ccc2cc(-c3ccc(-c4ccc(C)cn4)nc3)oc2c1` is recorded as 0.91 (acetonitrile; zinc-free ligand, with: quinine bisulfate reference).
`CCCC(CCC)NC(=O)c1ccc(OC2OC(C(=O)O)C(O)C(O)C2O)c(O)c1` (centres unmarked) gave a Tmax of 24 h (male Sprague-Dawley rat, plasma; oral, 200 mg/kg of parent drug).
With `CCCC[C@H](NC(C)=O)C(=O)N[C@H]1CC(=O)NCCCC[C@@H](C(=O)N[C@@H](C(=O)N2CCC[C@@H]2C(N)=O)C(C)C)NC(=O)[C@H](Cc2c[nH]c3ccccc23)NC(=O)[C@H](CCCN=C(N)N)NC(=O)[C@@H](Cc2ccc3ccccc3c2)NC(=O)[C@@H]2CCCN2C1=O` the plasma histamine was 16.1 ng/mL (healthy dogs, plasma; subcutaneous, 2.25 mg/kg per day, day 5, 24 h post-dose, median).
For `CCCC[C@@H]1NC(=O)[C@@H](NC(=O)[C@H](CCC(=O)O)NC(=O)CNC(=O)CN2CCN(CC(=O)O)CCN(CC(=O)O)CCN(CC(=O)O)CC2)CCCCNC(=O)C[C@@H](C(N)=O)NC(=O)[C@H](C(C)C)NC(=O)[C@@H]2CCCN2C(=O)[C@H](CCCNC(=N)N)NC(=O)CNC(=O)[C@H](Cc2c[nH]c3ccccc23)NC(=O)[C@H](CCCNC(=N)N)NC(=O)[C@@H](Cc2ccccc2)NC(=O)[C@H](Cc2c[nH]cn2)NC(=O)[C@H](CCC(=O)O)NC1=O` [gallium-67 labelled], the tissue ratio was 71.7 (C57 mice, B16/F1 flank melanoma; intravenous, 24 h; reference: tumour over skin).
Under “parent compound remaining”, `CCN(CC)CC#CCNc1ccnc2cc(Cl)ccc12` is recorded as 55% (human hepatocytes; 10 µM, 30 min).
The MRT(0-last) of `N=C(N)NCCC[C@@H]1NC(=O)[C@H](Cc2c[nH]c3ccccc23)NC(=O)[C@@H](CC2CCCCC2)NC(=O)[C@@H]2CCCN2C(=O)[C@@H](NC(=O)CCc2ccccc2)CCCNC1=O` is reported as 0.75 h (C57BL/6J mouse, plasma brain; oral, 1 mg/kg single dose).
`COC(=O)C(Cc1c[nH]cn1)NC(=O)C1(C)C(O)CCC2(C)C1CCC1(C)C2CC=C2C3C(C)C(C)CCC3(C)CCC21C` (centres unmarked) has a prodrug hydrolysed of 62.3% (rat faecal matter in buffer; 12 h, 37 °C).
For `Cn1c(=O)oc2ccc(-c3ccc(CC(C#N)NC(=O)C4CNCCCO4)c(F)c3)cc21` (centres unmarked), “mouth ulceration incidence” read 0% (human; oral, 40 mg once daily, TEAE, multiple ascending dose).
The aqueous solubility of `O=C(Cc1ccccc1)Nc1nc2ccccc2n1Cc1ccccc1` is reported as 1.2 µg/mL (≈ 3.51 µM) (shake-flask LC-MS/MS; water).
`Fc1ccc(NCc2cn(-c3ccccc3)nc2-c2ccc(OCc3ccccc3)cc2)cc1Cl` — result for “ulcer severity index”: 0.82 ± 0.35 (rat, gastric mucosa; oral, 60 mg/kg, 17 h; reference: control score subtracted).
`CC(C)C[C@H](NC(=O)[C@H](Cc1c[nH]c2ccccc12)NC(=O)[C@@H](N)CO)C(=O)N[C@@H](C)C(=O)N[C@@H](Cc1ccc(O)cc1)C(=O)N1CCC[C@H]1C(=O)NCC(=O)N[C@@H](C)C(=O)N[C@H](C(=O)N[C@@H](CO)C(=O)N[C@@H](Cc1ccc(O)cc1)C(=O)N[C@@H](CCCNC(=N)N)C(=O)NCCCCCC(=O)N[C@@H](CCCCNC(=O)[C@H](CCCNC(=N)N)NC(=O)[C@H](Cc1ccc(O)cc1)NC(=O)[C@H](CO)NC(=O)[C@@H](NC(=O)[C@H](C)NC(=O)CNC(=O)[C@@H]1CCCN1C(=O)[C@H](Cc1ccc(O)cc1)NC(=O)[C@H](C)NC(=O)[C@H](CC(C)C)NC(=O)[C@H](Cc1c[nH]c2ccccc12)NC(=O)[C@@H](N)CO)C(C)C)C(=O)O)C(C)C`: “fold shortening of half-life” about 8 fold (mouse serum; reference: SWL monomer).
With `CC[C@H](C)[C@H](NC(=O)[C@H](Cc1ccccc1)NC(=O)[C@H](CC(=O)O)NC(=O)[C@H](CN)NC(=O)[C@H](Cc1ccccc1)NC(=O)[C@H](Cc1ccccc1)NC(=O)[C@H](CCCCN)NC(=O)[C@H](CCCCN)NC(=O)[C@H](CC(C)C)NC(=O)[C@H](CCCNC(=N)N)NC(=O)[C@H](CCSC)NC(=O)[C@H](C)N)C(=O)N[C@@H](CC(C)C)C(=O)N[C@@H](CCC(N)=O)C(=O)N[C@@H](CCCNC(=N)N)C(=O)N[C@@H](CCCCN)C(=O)N[C@@H](CCCCN)C(=O)O` the helicity was 30.1% (circular dichroism; 20% TFE in PBS; 200 µM, pH 7.4, 25 °C).
`CN1CCC(N[C@@H]2CCc3[nH]c4c(C(N)=O)ccc(-c5ccccc5Cl)c4c3C2)CC1` has an MRT(0-t) of 6.52 h (mouse, plasma; oral, 10 mg/kg).
`CC[C@H](C)[C@@H]1NC(=O)[C@H](Cc2ccccc2)NC(=O)[C@@H](NC(=O)[C@H](CCCNC(=N)N)NC(=O)[C@H](Cc2ccccc2)NC(=O)[C@H](Cc2ccccc2)NC(=O)[C@H](CCCCN)NC(=O)[C@H](CO)NC(=O)[C@H](CC(C)C)NC(=O)[C@H](CCCNC(=N)N)NC(=O)[C@H](CCSC)NC(=O)[C@H](C)N)CCCCNC(=O)NCC[C@@H](C(=O)N[C@@H](CCCNC(=N)N)C(=O)N[C@@H](CCCCN)C(=O)N[C@@H](CCCCN)C(=O)O)NC(=O)[C@H](CC(C)C)NC1=O` gave a helicity of 10.6% (circular dichroism; 20% TFE in PBS; 200 µM, pH 7.4, 25 °C).
With `O=C([O-])CN1CCN(CC(=O)[O-])CCN(CC(=O)NCC2CCC(C(=O)NC(Cc3ccc4ccccc4c3)C(=O)NCCCCC(NC(=O)NC(CCC(=O)O)C(=O)O)C(=O)O)CC2)CCN(CC(=O)[O-])CC1.[44Sc+3]` (centres unmarked) the intact complex was 97.3 ± 0.1% (transchelation stability; 4 h, 37 °C, with: EDTA 10 mM).
For `CC[C@H](C)[C@H](NC(=O)[C@H](CCCNC(=N)N)NC(=O)[C@@H](NC(=O)CNC(C)=O)[C@@H](C)O)C(=O)N[C@H](C(=O)N[C@@H](Cc1ccc(O)cc1)C(=O)N[C@@H](CC(=O)O)C(=O)N[C@@H](CCCNC(=N)N)C(=O)N[C@@]1(C)CCCC=CCCC[C@@](C)(C(=O)N[C@@H](CS)C(=O)N[C@@H](CCCNC(=N)N)C(=O)N[C@@H](CC(N)=O)C(N)=O)NC(=O)[C@H](CCSC)NC(=O)[C@H](CC(C)C)NC(=O)[C@H](Cc2ccccc2)NC1=O)[C@@H](C)CC`, the helicity was 44% (CD spectroscopy; sodium phosphate buffer; 25 to 100 µM, pH 7.4, 25 °C).
For `CC1(C)C(/C=C/C2=C(Oc3ccc(S(=O)(=O)O)cc3)C(=C/C=C3/N(CCCCS(=O)(=O)O)c4ccc(S(=O)(=O)[O-])cc4C3(C)C)/CCC2)=[N+](CCCCCC(=O)NCCC(O)(P(=O)(O)O)P(=O)(O)O)c2ccc(S(=O)(=O)O)cc21`, the elimination half-life was 0.783 h (mouse, male, whole blood; intravenous, 10 nmol, over 4 h).
Under “integrated Qy/B absorption ratio”, `COCCOCCOCCOCCC(=O)NCc1cc(CNC(=O)CCOCCOCCOCCOC)cc(-c2cc3cc4nc(c(-c5ccc(CCC(=O)O)cc5)c5[nH]c(cc6nc(c(OC)c2[nH]3)CC6(C)C)cc5-c2cc(CNC(=O)CCOCCOCCOCCOC)cc(CNC(=O)CCOCCOCCOCCOC)c2)CC4(C)C)c1` is recorded as 0.48 (DMF; room temperature).
Under “patients with decreased appetite”, `CC(C)c1cnc(-c2cc(Cl)ccc2F)cc1Nc1ccncc1C(=O)NC(CO)CO` is recorded as 0% (patients, phase I monotherapy; oral, dose not given, grade 4).
`Cc1ccccc1/N=N/c1ccc(/N=N/c2c(O)ccc3ccccc23)c(C)c1` gave a measured concentration of 0.483 µg/L (extracted rat blood QC samples; 0.5 µg/L, 4 h, room temperature, short-term stability).
For `CCCC[C@H](NC(=O)CNC(=O)CNC(=O)CN1CCN(CC(=O)O)CCN(CC(=O)O)CCN(CC(=O)O)CC1)C(=O)N[C@H]1CC(=O)NCCCC[C@@H](C(N)=O)NC(=O)[C@H](Cc2c[nH]c3ccccc23)NC(=O)[C@H](CCCNC(=N)N)NC(=O)[C@@H](Cc2ccccc2)NC(=O)[C@H](Cc2c[nH]cn2)NC1=O` [gallium-67 labelled], “tumour to tissue ratio” read 23.4 (female C57 mice, B16/F1 melanoma; intravenous, 0.037 MBq, 24 h; reference: tumour over lung).
Under exposure ratio, `CC(O)c1cc(Cl)ccc1Cn1c(=S)[nH]c(=O)c2[nH]ccc21` (centres unmarked) is recorded as “not detected” (dog, both sexes, plasma; 100 mg/kg; reference: dog over human 10 mg).
